Assay results gathered from unrelated publications.
Each line is one published result; not all experiments were run side by side. Values joined by “and” are separate records of one study, mostly repeats; a detail may differ.
rep main protease: Replicase polyprotein 1ab, main protease (rep, Severe acute respiratory syndrome coronavirus 2, UniProt P0DTD1)

O=C(c1ccc(F)cc1)C1CCN(CCCn2c(=O)[nH]c3cc(Cl)ccc32)CC1  EC50 (SARS-CoV-2; viral replication, GFP plate reader screen; cell-based): > 100 µM
COc1ccc(C[C@@H]2c3cc(Oc4cc(C[C@@H]5c6cc(O)c(OC)cc6CCN5C)ccc4O)c(OC)cc3CCN2C)cc1  mean inhibition (SARS-CoV-2; cytopathic effect; Vero E6; 50 µM, replicate run): 16.7%
CC(C)(C)c1cc(C(C)(C)C)c(NC(=O)c2c[nH]c3ccccc3c2=O)cc1O  EC50 (SARS-CoV-2; viral replication, GFP plate reader screen; cell-based): 4.57 µM
CC[C@H](C)[C@H](NC(=O)[C@H](CC(C)C)NC(=O)[C@H](Cc1c[nH]c2ccccc12)NC(=O)[C@H](CCC(N)=O)NC(=O)[C@@H](NC(=O)[C@H](Cc1ccccc1)NC(=O)[C@H](C)NC(=O)[C@H](CCCCNC(=O)COCCOCCNC(=O)COCCOCCNC(=O)CC[C@H](NC(=O)CCCCCCCCCCCCCCCCCCC(=O)O)C(=O)O)NC(=O)[C@H](CCC(N)=O)NC(=O)[C@H](C)NC(=O)[C@@H](NC(=O)[C@H](CCCCN)NC(=O)[C@H](CC(=O)O)NC(=O)[C@H](CC(C)C)NC(=O)C(C)(C)NC(=O)[C@@H](NC(=O)[C@H](CO)NC(=O)[C@H](Cc1ccc(O)cc1)NC(=O)[C@H](CC(=O)O)NC(=O)[C@H](CO)NC(=O)[C@@H](NC(=O)[C@H](Cc1ccccc1)NC(=O)[C@@H](NC(=O)CNC(=O)[C@H](CCC(=O)O)NC(=O)C(C)(C)NC(=O)[C@@H](N)Cc1ccc(O)cc1)[C@@H](C)O)[C@@H](C)O)[C@@H](C)CC)[C@@H](C)CC)C(C)C)C(=O)N[C@@H](C)C(=O)NCC(=O)NCC(=O)N1CCC[C@H]1C(=O)N[C@@H](CO)C(=O)N[C@@H](CO)C(=O)NCC(=O)N[C@@H](C)C(=O)N1CCC[C@H]1C(=O)N1CCC[C@H]1C(=O)N1CCC[C@H]1C(=O)N[C@@H](CO)C(N)=O  subjects with adverse event (item: treatment-emergent catheter site erythema; healthy subjects; 1.5 mg, multiple ascending dose): 16.7%
CC(Nc1nc(N2CCN(CCN)CC2)nc2ccccc12)c1ccccc1 (stereo not drawn)  AC50 (SARS-CoV-2; cytopathic effect, cell-based CPE; USA_WA1/2020; round 2, 5-point dilution): 5.62 µM
C[C@H](CCC(=O)NCCS(=O)(=O)[O-])[C@H]1CC[C@H]2[C@@H]3[C@@H](O)C[C@@H]4C[C@H](O)CC[C@]4(C)[C@H]3CC[C@]12C.[Na+]  inhibition (rep main protease; reporter gene (Gaussia luciferase), inhibitor; 20 µM): 1.7%
CC(C)(C)[C@H](NC(=O)C(F)(F)F)C(=O)N1C[C@H]2[C@@H]([C@H]1C(=O)N[C@H](C#N)C[C@@H]1CCNC1=O)C2(C)C  inhibition (SARS-CoV-2; viral replication; Vero E6; 10 µM): 118% and 128%
CCN(CC)CCNC(=O)c1[nH]c2ccccc2c1Sc1ccc(Cl)cc1  efficacy (SARS-CoV-2; cytopathic effect; USA_WA1/2020; round 2, 5-point): 115%
COC[C@H](NC(=O)c1cnc(C)s1)C(=O)N[C@@H](COC)C(=O)N[C@@H](Cc1ccccc1)C(=O)[C@@]1(C)CO1  inhibition (rep main protease; reporter gene (mKate2), inhibitor; 20 µM): -1.11%
O=C(NCCCN1CCCCC1)c1cc(Sc2ccc(Cl)cc2)nc2ccccc12  efficacy (SARS-CoV-2; cytopathic effect; USA_WA1/2020; retest 8-point): 99.3%
CNC(=O)[C@@H](NC(=O)[C@H](CC(C)C)[C@H](O)C(=O)NO)C(C)(C)C  viability difference (C2C12; 10 µM, with: KL venom; reference: venom alone): 11.3%
OC(CCCN1CCc2c(c3cc(F)ccc3n2-c2ccc(F)cc2)C1)c1ccc(F)cc1 (stereo not drawn)  EC50 (SARS-CoV-2; viral replication, GFP plate reader screen; cell-based): 4.68 µM
Cn1cnc(Cn2c(=O)[nH]/c(=N\c3cc4cn(C)nc4cc3Cl)n(Cc3cc(F)c(F)cc3F)c2=O)n1  patients with adverse event (human, moderate renal impairment; oral, 375 mg, vessel puncture site haemorrhage TEAE, Severe severity): 0%
NC(CO)(CO)CCc1ccc(Sc2cccc(OCc3ccccc3)c2)cc1Cl  EC50 (SARS-CoV-2; viral replication, high-content imaging screen; cell-based): > 100 µM
CC(C)=CCc1c(O)ccc(C(=O)/C=C/c2ccc(O)cc2)c1O  CPE inhibition (SARS-CoV-2; viral replication; Vero E6; 25 µM): 0%
CC1CCCCN1CCCNC(=O)c1cc(Sc2cccc(Cl)c2)nc2ccccc12 (stereo not drawn)  AC50 (SARS-CoV-2; cytopathic effect, cell-based CPE; USA_WA1/2020; round 2, 5-point dilution): 10 µM
O=C(/C=C/c1ccc(O)c(O)c1/C=C/c1ccc(O)c(O)c1)O[C@H](Cc1ccc(O)c(O)c1)C(=O)O  mean inhibition (SARS-CoV-2; cytopathic effect; Vero E6; 0.7812 µM, replicate run): 0%
Nc1ncnc2c([C@@H]3N[C@H](CO)[C@@H](O)[C@H]3O)c[nH]c12  inhibition (Marburg virus; surface glycoprotein expression; HeLa, Musoke; 25 µM, 24 h): 52.5%

For quick reference, copied from above:
CC1CCCCN1CCCNC(=O)c1cc(Sc2cccc(Cl)c2)nc2ccccc12 (stereo not drawn)  AC50 (SARS-CoV-2; cytopathic effect, cell-based CPE; USA_WA1/2020; round 2, 5-point dilution): 10 µM
O=C(/C=C/c1ccc(O)c(O)c1/C=C/c1ccc(O)c(O)c1)O[C@H](Cc1ccc(O)c(O)c1)C(=O)O  mean inhibition (SARS-CoV-2; cytopathic effect; Vero E6; 0.7812 µM, replicate run): 0%
Nc1ncnc2c([C@@H]3N[C@H](CO)[C@@H](O)[C@H]3O)c[nH]c12  inhibition (Marburg virus; surface glycoprotein expression; HeLa, Musoke; 25 µM, 24 h): 52.5%
